Experimental data collected from several papers.
Parts stem from different laboratories: compare values within a part only.
Chain of UniProt P10721 (whole entry, unmodified, looked up): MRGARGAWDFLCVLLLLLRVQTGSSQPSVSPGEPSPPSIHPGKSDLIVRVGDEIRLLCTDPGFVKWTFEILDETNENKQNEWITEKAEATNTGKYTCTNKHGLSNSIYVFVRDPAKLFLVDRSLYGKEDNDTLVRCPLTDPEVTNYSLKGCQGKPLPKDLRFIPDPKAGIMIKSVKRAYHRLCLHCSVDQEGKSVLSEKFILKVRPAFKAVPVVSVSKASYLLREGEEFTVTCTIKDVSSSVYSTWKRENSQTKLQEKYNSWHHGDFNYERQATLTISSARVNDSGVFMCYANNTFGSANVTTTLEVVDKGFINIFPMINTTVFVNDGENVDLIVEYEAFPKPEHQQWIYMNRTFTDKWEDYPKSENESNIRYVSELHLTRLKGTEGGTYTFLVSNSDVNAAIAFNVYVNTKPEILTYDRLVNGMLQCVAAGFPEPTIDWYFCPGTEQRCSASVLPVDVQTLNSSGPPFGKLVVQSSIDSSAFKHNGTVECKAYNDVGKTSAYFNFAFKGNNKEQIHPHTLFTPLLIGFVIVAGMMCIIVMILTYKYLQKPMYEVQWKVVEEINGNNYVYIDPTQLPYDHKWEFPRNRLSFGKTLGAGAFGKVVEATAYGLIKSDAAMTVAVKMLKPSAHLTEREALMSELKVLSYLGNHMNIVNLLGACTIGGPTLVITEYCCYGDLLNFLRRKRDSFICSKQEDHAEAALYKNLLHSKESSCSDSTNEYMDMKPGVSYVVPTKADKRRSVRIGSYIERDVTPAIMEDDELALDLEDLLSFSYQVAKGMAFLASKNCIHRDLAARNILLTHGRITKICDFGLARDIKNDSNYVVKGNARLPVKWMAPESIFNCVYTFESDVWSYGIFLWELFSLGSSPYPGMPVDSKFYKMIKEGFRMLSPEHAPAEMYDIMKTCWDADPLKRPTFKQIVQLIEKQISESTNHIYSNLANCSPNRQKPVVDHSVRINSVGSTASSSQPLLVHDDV
Chain of UniProt Q07002 (whole entry, looked up): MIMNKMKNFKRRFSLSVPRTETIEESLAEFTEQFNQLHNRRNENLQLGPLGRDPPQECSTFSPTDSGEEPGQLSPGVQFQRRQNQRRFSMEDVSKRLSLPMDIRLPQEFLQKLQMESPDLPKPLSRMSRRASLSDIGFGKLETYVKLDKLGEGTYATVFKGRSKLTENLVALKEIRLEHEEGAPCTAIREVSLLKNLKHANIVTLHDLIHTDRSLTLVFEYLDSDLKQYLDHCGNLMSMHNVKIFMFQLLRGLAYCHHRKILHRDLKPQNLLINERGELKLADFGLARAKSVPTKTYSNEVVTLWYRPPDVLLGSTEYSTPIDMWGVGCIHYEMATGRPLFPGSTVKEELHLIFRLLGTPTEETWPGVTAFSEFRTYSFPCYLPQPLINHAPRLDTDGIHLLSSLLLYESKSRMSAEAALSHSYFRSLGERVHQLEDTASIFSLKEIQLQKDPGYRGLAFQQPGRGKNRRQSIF
Chain of UniProt Q9P0L2 (whole entry, looked up): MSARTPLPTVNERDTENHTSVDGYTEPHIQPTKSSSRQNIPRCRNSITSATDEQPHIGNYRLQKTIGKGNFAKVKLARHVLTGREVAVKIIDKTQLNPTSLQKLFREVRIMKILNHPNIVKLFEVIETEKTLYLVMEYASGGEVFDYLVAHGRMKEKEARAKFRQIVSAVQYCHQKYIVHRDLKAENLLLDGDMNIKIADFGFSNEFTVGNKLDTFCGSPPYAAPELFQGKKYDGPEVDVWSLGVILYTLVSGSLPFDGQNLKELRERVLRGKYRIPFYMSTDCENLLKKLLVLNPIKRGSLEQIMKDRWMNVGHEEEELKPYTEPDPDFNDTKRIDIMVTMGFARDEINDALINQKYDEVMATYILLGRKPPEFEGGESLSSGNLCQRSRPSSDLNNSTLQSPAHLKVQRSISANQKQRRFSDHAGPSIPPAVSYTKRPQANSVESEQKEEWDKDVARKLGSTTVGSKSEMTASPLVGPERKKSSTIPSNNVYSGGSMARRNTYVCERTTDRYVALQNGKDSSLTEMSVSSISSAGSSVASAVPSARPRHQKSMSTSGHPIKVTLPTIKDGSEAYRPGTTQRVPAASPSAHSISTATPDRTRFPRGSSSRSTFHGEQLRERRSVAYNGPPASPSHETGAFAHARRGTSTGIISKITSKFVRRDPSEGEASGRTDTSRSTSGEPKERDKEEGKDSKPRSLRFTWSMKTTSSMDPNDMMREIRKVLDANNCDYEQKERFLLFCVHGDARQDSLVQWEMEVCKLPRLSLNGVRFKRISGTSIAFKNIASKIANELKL
Chain of UniProt Q15349 (whole entry, looked up): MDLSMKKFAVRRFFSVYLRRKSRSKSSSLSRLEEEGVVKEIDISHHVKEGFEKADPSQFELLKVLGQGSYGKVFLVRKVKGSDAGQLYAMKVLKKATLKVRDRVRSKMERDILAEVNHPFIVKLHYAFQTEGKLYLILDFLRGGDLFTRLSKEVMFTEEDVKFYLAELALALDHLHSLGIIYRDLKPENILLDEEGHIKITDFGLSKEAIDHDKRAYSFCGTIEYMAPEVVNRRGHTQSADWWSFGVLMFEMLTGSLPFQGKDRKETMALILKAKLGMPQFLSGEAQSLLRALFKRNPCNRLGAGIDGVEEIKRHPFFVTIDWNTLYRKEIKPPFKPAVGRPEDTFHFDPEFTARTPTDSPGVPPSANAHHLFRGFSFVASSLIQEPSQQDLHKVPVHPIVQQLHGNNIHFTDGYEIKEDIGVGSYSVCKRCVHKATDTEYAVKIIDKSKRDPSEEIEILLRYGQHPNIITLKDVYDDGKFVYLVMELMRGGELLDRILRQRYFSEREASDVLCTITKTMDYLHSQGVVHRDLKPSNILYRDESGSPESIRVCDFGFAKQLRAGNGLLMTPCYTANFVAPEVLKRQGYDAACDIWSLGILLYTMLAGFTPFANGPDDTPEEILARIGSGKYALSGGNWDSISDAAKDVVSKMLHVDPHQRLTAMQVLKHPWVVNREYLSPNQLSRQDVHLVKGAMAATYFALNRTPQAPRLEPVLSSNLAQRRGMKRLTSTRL
Chain of UniProt P42685 (whole entry, looked up): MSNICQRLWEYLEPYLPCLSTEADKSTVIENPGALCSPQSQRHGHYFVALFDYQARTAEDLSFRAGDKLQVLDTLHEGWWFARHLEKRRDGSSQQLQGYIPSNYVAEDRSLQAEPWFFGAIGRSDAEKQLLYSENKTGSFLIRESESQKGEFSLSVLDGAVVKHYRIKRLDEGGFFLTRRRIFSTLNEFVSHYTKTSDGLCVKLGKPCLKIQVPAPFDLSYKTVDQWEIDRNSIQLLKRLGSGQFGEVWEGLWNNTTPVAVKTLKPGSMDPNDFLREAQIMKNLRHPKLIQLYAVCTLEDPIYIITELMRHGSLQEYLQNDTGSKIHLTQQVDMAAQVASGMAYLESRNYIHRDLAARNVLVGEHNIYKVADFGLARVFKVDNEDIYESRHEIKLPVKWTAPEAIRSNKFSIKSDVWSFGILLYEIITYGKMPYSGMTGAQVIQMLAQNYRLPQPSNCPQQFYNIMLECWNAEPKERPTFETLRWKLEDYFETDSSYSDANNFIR
Chain of UniProt P41743 (whole entry, looked up): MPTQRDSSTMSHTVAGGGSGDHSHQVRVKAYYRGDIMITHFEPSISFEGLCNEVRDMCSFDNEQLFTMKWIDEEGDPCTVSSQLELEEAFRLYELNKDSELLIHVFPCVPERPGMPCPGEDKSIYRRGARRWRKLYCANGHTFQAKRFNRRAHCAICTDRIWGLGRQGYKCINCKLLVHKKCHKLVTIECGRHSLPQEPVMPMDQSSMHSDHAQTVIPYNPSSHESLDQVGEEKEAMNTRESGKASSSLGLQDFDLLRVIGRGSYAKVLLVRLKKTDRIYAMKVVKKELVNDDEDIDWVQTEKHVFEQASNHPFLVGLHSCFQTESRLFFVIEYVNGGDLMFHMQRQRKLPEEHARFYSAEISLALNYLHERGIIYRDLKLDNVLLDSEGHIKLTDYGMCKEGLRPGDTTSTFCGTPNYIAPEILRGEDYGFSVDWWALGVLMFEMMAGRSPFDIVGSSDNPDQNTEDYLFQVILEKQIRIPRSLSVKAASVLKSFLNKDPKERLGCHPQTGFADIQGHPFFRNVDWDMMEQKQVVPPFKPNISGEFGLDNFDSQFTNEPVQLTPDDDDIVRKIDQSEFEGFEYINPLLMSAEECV

Sample 1
Species: human
Matrix: microsomes or S9
Tested at: 2 µM
Time: 0.5 h
Measurement: remaining compound
CCc1ccc(-c2nc3sc(N4CCN(C(=O)c5ccnn5C)CC4)nn3c2NC(C)(C)C)cc1: 35.3%
N#Cc1nc(-c2cccc3ccccc23)oc1NCc1cccnc1: 8.12%
Cc1ccc(OCCn2c(C)c(/C=N/n3cnnc3)c3ccccc32)cc1C: 29.7%
CC(=O)Nc1cccc(C2CCN(CCCn3nc(S(=O)(=O)c4ccc(C)cc4)c4ccccc4c3=O)CC2)c1: 0.277%
CCC(=O)N(CCO)Cc1cc2cc(C)cc(C)c2[nH]c1=O: > 100%
Nc1ncnc2c1ncn2C/C=C/CN1CCN(Cc2ccccc2)CC1: > 99.9%
CC(C)NC(=O)c1[nH]cnc1C(=O)N1CCCCCC1: 44.9%
N#Cc1ccc2ncc(/C=C/c3nc4ccccc4o3)n2c1: 9.86%
COC(=O)c1cccc(NC(=O)N2Cc3c(sc4c3CCCC4)-n3cccc3C2C(C)C)c1 (stereo not drawn): 5.28%
O=C(CC1(O)C(=O)Nc2cc(Cl)cc(Cl)c21)c1ccccc1 (stereo not drawn): 58.1%
CCOC(=O)/C=N/N(c1ccccc1)c1ccccc1[N+](=O)[O-]: 2.53%

Sample 2
SMILES: Cc1cc(-n2nc(Cc3cc(F)cc(C(F)(F)F)c3)nc2C)ccc1C(N)=O
Observed: cell-free assay
Method: competition with immobilised ligand
Tested at: 1 µM
Measurement: remaining binding
ALK (Homo sapiens, UniProt Q9UM73, L1196M): 100%
NUAK1 (Homo sapiens, UniProt O60285): 100%
CDK18 (Homo sapiens, UniProt Q07002): 100%
DCLK1 (Homo sapiens, UniProt O15075): 100%
MAPK8 (Homo sapiens, UniProt P45983): 78%
STK32B (Homo sapiens, UniProt Q9NY57): 100%
CAMK1G (Homo sapiens, UniProt Q96NX5): 100%
HIPK4 (Homo sapiens, UniProt Q8NE63): 100%
PRKCI (Homo sapiens, UniProt P41743): 100%
PRKCQ (Homo sapiens, UniProt Q04759): 100%
Mast/stem cell growth factor receptor Kit, autoinhibited (KIT, Homo sapiens, UniProt P10721): 100%
PRKAA1 (Homo sapiens, UniProt Q13131): 100%
KIT (Homo sapiens, UniProt P10721, V559D): 83%
EPHA4 (Homo sapiens, UniProt P54764): 96%
PDGFRA (Homo sapiens, UniProt P16234): 100%
PIP5K1C (Homo sapiens, UniProt O60331): 66%
GRK1 (Homo sapiens, UniProt Q15835): 87%
MARK1 (Homo sapiens, UniProt Q9P0L2): 100%
DYRK2 (Homo sapiens, UniProt Q92630): 91%
SLK (Homo sapiens, UniProt Q9H2G2): 92%
eIF-2-alpha kinase GCN2, C-terminal kinase domain (EIF2AK4, Homo sapiens, UniProt Q9P2K8, S808G): 100%
TLK2 (Homo sapiens, UniProt Q86UE8): 100%
FGR (Homo sapiens, UniProt P09769): 94%
TESK1 (Homo sapiens, UniProt Q15569): 100%
FRK (Homo sapiens, UniProt P42685): 100%

Sample 3
SMILES: C=CCc1ccc(O)c(-c2cc(CC=C)ccc2O)c1
Target: Anoctamin-1 (ANO1, Homo sapiens, UniProt Q5XXA6, del476-501)
Chain of UniProt Q5XXA6 (whole entry, unmodified, looked up): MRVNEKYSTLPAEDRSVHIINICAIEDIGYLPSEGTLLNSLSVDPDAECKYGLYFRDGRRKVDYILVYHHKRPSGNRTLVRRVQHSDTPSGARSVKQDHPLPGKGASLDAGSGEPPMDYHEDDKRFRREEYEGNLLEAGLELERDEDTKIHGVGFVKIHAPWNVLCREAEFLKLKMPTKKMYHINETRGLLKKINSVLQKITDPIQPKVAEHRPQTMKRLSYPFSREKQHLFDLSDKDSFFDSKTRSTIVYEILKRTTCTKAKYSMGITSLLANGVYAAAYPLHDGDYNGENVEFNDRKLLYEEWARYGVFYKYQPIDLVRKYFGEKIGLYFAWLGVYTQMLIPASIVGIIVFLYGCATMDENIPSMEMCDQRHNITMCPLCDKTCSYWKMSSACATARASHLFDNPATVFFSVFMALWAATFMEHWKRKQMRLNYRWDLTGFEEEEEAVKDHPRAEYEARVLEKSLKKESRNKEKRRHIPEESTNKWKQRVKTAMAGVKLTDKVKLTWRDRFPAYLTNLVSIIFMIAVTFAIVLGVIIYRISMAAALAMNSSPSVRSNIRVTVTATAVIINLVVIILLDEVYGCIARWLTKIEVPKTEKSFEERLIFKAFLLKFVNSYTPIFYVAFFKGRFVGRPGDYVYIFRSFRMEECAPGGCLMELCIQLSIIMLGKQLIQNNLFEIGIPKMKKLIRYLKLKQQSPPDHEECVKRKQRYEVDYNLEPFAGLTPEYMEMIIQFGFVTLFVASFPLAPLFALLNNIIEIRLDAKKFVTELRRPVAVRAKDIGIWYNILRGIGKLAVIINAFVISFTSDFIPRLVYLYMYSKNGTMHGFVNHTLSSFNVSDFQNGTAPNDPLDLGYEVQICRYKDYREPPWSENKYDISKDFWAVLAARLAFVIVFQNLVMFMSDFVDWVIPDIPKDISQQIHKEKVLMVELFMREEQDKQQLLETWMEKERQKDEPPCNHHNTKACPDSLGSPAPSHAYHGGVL
Observed: chloride current
Method: whole-cell patch clamp
Measurement: normalised current
30 µM, 80 mV, 300 nM free Ca2+: 0.29
10 µM, -40 mV, 300 nM free Ca2+, with: honokiol and magnolol 3 µM: -0.0491
100 µM, 20 mV, 300 nM free Ca2+, with: honokiol and magnolol 3 µM: 0.0075
100 µM, 80 mV, 300 nM free Ca2+: 0.166
3 µM, 40 mV, 300 nM free Ca2+: 0.192
3 µM, -100 mV, 300 nM free Ca2+: -0.0991
3 µM, 20 mV, 300 nM free Ca2+: 0.0745
10 µM, 40 mV, 300 nM free Ca2+, with: honokiol and magnolol 3 µM: 0.128
100 µM, 40 mV, 300 nM free Ca2+: 0.042
1 µM, 20 mV, 300 nM free Ca2+: 0.0754
10 µM, 20 mV, 300 nM free Ca2+: 0.0555
3 µM, -40 mV, 300 nM free Ca2+: -0.0725

Sample 4
SMILES: O=C(Nc1cnn(-c2csc(C(=O)NC3COC3)c2)c1)Nc1c(F)cccc1Cl
Tested at: 5 µM
Measurement: remaining activity
MAP3K6 (Homo sapiens, UniProt O95382); enzyme activity, inhibitor: 92.5%
ERN1 (Homo sapiens, UniProt O75460); enzyme activity, inhibitor: 95.8%
STK11 (Homo sapiens, UniProt Q15831); enzyme activity; baseline: untreated control: 94.1%
DDR2 (Homo sapiens, UniProt Q16832); enzyme activity; baseline: untreated control: 94.1%
RPS6KA2 (Homo sapiens, UniProt Q15349); kinase activity, kinase panel profiling: 90.1%
SRC (Homo sapiens, UniProt P12931); enzyme activity; baseline: untreated control: 97.6%
Cell division cycle 7-related protein kinase, with DBF4 (CDC7, Homo sapiens, UniProt O00311); enzyme activity; baseline: untreated control: 81.5%
Cyclin-dependent kinase 3, with cyclin E (CDK3, Homo sapiens, UniProt Q00526); enzyme activity; baseline: untreated control: 90.9%
LTK (Homo sapiens, UniProt P29376); enzyme activity; baseline: untreated control: 91.3%
Cyclin-dependent kinase 18, with cyclin Y (CDK18, Homo sapiens, UniProt Q07002); enzyme activity; baseline: untreated control: 89.5%
WNK3 (Homo sapiens, UniProt Q9BYP7); enzyme activity; baseline: untreated control: 87.3%
MAP2K3 (Homo sapiens, UniProt P46734); enzyme activity; baseline: untreated control: 98.8%

Excerpt of the above (sample 2):
MARK1 (Homo sapiens, UniProt Q9P0L2): 100%
ALK (Homo sapiens, UniProt Q9UM73, L1196M): 100%
STK32B (Homo sapiens, UniProt Q9NY57): 100%
MAPK8 (Homo sapiens, UniProt P45983): 78%
Mast/stem cell growth factor receptor Kit, autoinhibited (KIT, Homo sapiens, UniProt P10721): 100%
